{"data": "Published values of several laboratories", "note": "Each numbered part is a random draw from the data of one study; scales do not carry over between parts."}
{"data": "Set 1", "target": "Transcription factor Sp1 (SP1, Homo sapiens, UniProt P08047, residues 1-785, full length assumed)", "technique": "protein-binding microarray", "molecule type": "double-stranded DNA, one strand shown", "sample": "in vitro", "tested at": "not given", "notes": "k-mer, scored over probes, only values ≥0.25", "direction": "higher = stronger binding", "chain of UniProt P08047 (whole entry, looked up)": "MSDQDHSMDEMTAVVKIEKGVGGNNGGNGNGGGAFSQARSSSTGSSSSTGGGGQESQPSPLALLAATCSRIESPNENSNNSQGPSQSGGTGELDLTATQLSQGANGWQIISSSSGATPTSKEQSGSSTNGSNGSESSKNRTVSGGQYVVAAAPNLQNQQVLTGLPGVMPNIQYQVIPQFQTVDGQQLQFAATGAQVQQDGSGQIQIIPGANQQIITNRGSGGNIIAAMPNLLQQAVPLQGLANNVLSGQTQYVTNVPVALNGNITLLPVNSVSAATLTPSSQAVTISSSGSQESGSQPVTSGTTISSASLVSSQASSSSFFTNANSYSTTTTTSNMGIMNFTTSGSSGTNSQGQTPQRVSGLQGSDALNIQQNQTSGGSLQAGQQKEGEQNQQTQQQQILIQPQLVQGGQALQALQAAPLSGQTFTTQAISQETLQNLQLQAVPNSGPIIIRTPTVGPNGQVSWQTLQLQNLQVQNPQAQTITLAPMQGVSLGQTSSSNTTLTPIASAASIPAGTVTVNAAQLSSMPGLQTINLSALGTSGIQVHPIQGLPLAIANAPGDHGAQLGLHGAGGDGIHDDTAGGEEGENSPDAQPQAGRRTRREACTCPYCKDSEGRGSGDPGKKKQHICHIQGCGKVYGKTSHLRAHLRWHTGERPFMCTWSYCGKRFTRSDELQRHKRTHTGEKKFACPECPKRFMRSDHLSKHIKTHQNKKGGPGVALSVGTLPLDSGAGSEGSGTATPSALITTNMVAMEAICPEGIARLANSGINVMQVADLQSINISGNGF"}
{"Sequence": "CCTCCCTC", "E-score": 0.422}
{"Sequence": "AGGGGATC", "E-score": 0.257}
{"Sequence": "ATTGTATA", "E-score": 0.294}
{"data": "Set 2", "target": "Fragile X messenger ribonucleoprotein 1, C-terminal low-complexity region (Fmr1, Mus musculus, UniProt P35922)", "technique": "RNA Bind-n-Seq", "molecule type": "RNA", "sample": "in vitro", "tested at": "200 nM", "notes": "whole 134-nt RNA, ends assumed", "together with": "150 mM LiCl", "baseline": "input library", "direction": "higher = stronger binding", "library": "7-deaza-guanosine replaces G"}
{"Sequence": "GGGAGUUCUACAGUCCGACGAUCCUCAAGUCCUGUGCUACACAUCGUAUGUACCGAAUCGGGUGGGUUUGGGAGGGAAAGUAUUAUGUUACGCCGUUCGGAUCUGCACUUCCAUGGAAUUCUCGGGUGUCAAGG", "log2 enrichment": 0.08}
{"Sequence": "GGGAGUUCUACAGUCCGACGAUCUCAAGUCCUGUGCUACACAUCGUAUGUACCGAAUCGGUUUGGUUUGGGGUUUGGGAAAGUAUUAUGUUACGCCGUUCGGAUCUGCACUUCUGGAAUUCUCGGGUGUCAAGG", "log2 enrichment": -2.49}
{"Sequence": "GGGAGUUCUACAGUCCGACGAUCAGUCCUGUGCUACACAUCGUAUGUACCGAAUCGGGGUUUUUGGGGUGGGGAAAGGGGAAAGUAUUAUGUUACGCCGUUCGGAUCUGCACUUGGAAUUCUCGGGUGUCAAGG", "log2 enrichment": -0.253}
{"data": "Set 3", "target": "Histone acetyltransferase KAT6A, both winged helices, GST fusion (KAT6A, Homo sapiens, UniProt Q92794, residues 1-181)", "technique": "protein binding microarray", "molecule type": "double-stranded DNA, one strand shown", "sample": "in vitro", "tested at": "not given", "notes": "8-mer, flanks averaged, mean of 2 arrays, mostly near background", "baseline": "not given", "direction": "higher = stronger binding", "Construct (chain)": "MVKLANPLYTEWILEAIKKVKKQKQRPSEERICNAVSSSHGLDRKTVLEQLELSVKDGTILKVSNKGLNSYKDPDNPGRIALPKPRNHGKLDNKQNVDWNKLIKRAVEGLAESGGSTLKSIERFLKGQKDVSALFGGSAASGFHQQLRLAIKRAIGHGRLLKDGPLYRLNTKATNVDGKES"}
{"Sequence": "ATGCCCTC", "E-score": -0.126}
{"Sequence": "ATAAAGGA", "E-score": -0.182}
{"Sequence": "AATAGGAT", "E-score": -0.0192}
{"Sequence": "CCTGACCG", "E-score": 0.143}
{"data": "Further values, each from its own experiment"}
{"Molecule": "PhoQ, residues 284 288 289 292 302 303 SSCCRF", "target": "PhoP, residues 12 14 15 18 19 TPWLV (Escherichia coli, UniProt P23836)", "test": "Sort-seq, refers to: YFP reporter", "system": "E. coli", "setting": "PhoQ-PhoP variant library, together with: 10 µM Mg2+", "scale": "baseline: high Mg2+ state, higher = stronger signaling", "measurement": "fold induction", "result": 15.8}
{"note": "For quick reference, copied from above (set 3):"}
{"Sequence": "AATAGGAT", "E-score": -0.0192}
